Measurements of several laboratories.
Each line is one published result; not all experiments were run side by side. ± gives the spread as reported.

Cc1cc2c(cc1O)C=C1C=CC(=O)C(C)(C)[C@H]1CC2  disease activity index (C57BL/6J mouse DSS colitis; oral gavage, 50 and 100 mg/kg daily, preventive): decreased
O=C1O/C(=C\c2cc(F)ccc2OCCN2CCOCC2)c2cc(Cc3cccc(F)c3)[nH]c(=O)c21  vimentin level (Western blot; rat, bleomycin-induced pulmonary fibrosis, lung; intraperitoneal, 5.0 mg/kg twice daily, 28 days): decreased
COc1ccc(C2CC(c3ccc(C)cc3)=Nc3ccccc3S2)cc1OC (centres unmarked)  AST (SGOT) (Wistar rat, STZ-induced diabetes, serum; 20 mg/kg, 28 days): 20.4 ± 2.29 IU/L
C[N+](C)(CI)CC(=O)O  platelet aggregation (human platelet-rich plasma; 20 µM, with: ADP 2 µM): no effect
Cc1cc(O)c(C=O)c2c1C(=O)Oc1c(CO)c(O)c3c(c1O2)C(O)OC3=O (centres unmarked)  Intromission latency (copulatory behaviour test; rat, male, streptozotocin-induced diabetes; 5 mg/kg, day 63): 895 ± 32.9 s
Cc1cc2c(cc1C1(c3ncc(C(=O)O)cn3)CC1)C(C)(C)CCC2(C)C  log2 fold change (RNA sequencing, refers to: Ifit3 mRNA; rat, brain; dose not given, 24 h, single dose; baseline: vehicle): -0.083
CC/C=C\C/C=C\C/C=C\C/C=C\C/C=C\CCCCOC(CC)C(=O)O (centres unmarked)  hepatic cholesteryl ester (APOE*3Leiden.CETP mice, high-fat/cholesterol diet; dose not given, 20 weeks; baseline: control): decreased
C=C(c1ccc(C(=O)O)c(F)c1)c1cc2c(cc1C)C(C)(C)C=CC2(C)C  log2 fold change (RNA sequencing, refers to: Dlx2 mRNA; rat, brain; dose not given, 24 h, single dose; baseline: vehicle): 0.48
CCCCCCCCCn1cc(C(N)(CO)CO)nn1  LC3-II and p62 levels (APP/PS1 mouse, cortex, hippocampus; dose not given; baseline: PBS): decreased
COc1ccc(-c2cc(C(=O)Nc3cccc(Cl)c3C)no2)cc1O  EC50 (membrane potential, rhodamine uptake; isolated mouse liver mitochondria): > 100 µM
Cc1cc(=O)[nH]c2ccc(OCCCC(=O)N3CCN(C)CC3)cc12  contraction force increase (rat, isolated spontaneously beating atria; 100 µM; baseline: baseline): 15 ± 3%
CN1C[C@H](c2cccc(C(F)(F)F)c2)[C@@H](C(=O)Nc2ccccc2F)C1=O  herbicidal activity (whole plants; concentration not given): active
COc1c2c(cc3oc(CO)cc(=O)c13)O[C@H](C(C)(C)O)C2  hot plate latency (analgesia; mouse; oral, 4 mg/kg, 1.5 h): 14.8 ± 0.69 s
Cc1nc(C)c(C=[N+]([O-])C(C)(C)C)nc1C  MEF2D level (immunofluorescence; MPTP-treated mice, dopaminergic neurons; dose not given; baseline: sham): 93.3%
COc1ccc2c(c1)c(CC(=O)OCC(=O)c1ccccc1)c(C)n2C(=O)c1ccc(Cl)cc1  latency of nociceptive response (hot plate test; BALB/c mice; 100 mg/kg, 30 min): 14.6 ± 0.92 s
CC(C)CN(CC(C)C)C(=O)/C=C/C=C/c1ccc2c(c1)OCO2  PTZ seizure threshold (C57BL/6N mice; ip, 30 mg/kg, 30 min before PTZ, with: PTZ iv infusion): 55.8 ± 2.8 mg/kg PTZ
Cc1ccc(S(=O)(=O)N(CCc2nnc(S)n2N)c2ccc(Cl)cc2)cc1  protection (analgesia; rat tail flick radiant heat; 200 mg/kg): 93.8%
COc1ccc(C2CC(c3ccc(C)cc3)=Nc3ccccc3S2)cc1 (centres unmarked)  body weight (Wistar rat, STZ-induced diabetes; oral, 10 mg/kg once daily, day 14): 186 ± 4.19 g
COc1ccc(OC)c(C(=Cc2ccc(O)c(OC)c2)C(=O)NCCc2ccc(O)cc2)c1  glial activation (refers to: CD68, GFAP; C57BL mice, MPTP/p Parkinson model, midbrain; 75 mg/kg, 8 weeks; baseline: MPTP/p vehicle): inhibited
CC(C)C[C@H](NC(=O)[C@H](CCCNC(=N)N)NC(=O)CNC(=O)[C@@H](N)CC(C)C)C(=O)N[C@@H](CO)C(=O)N[C@@H](CCC(N)=O)C(=O)N[C@@H](CCC(=O)O)C(=O)N[C@@H](CC(C)C)C(=O)N[C@@H](Cc1c[nH]cn1)C(=O)N[C@@H](CCCNC(=N)N)C(=O)N[C@@H](CC(C)C)C(=O)N[C@@H](CCC(N)=O)C(=O)N[C@H](C(=O)N[C@@H](Cc1ccc(O)cc1)C(=O)N1CCC[C@H]1C(=O)N[C@@H](CCCNC(=N)N)C(=O)N[C@H](C(=O)N[C@@H](CC(N)=O)C(=O)N[C@H](C(=O)NCC(=O)N[C@@H](CO)C(=O)N[C@@H](CC(N)=O)C(=O)N[C@H](C(=O)N[C@@H](Cc1ccc(O)cc1)C(N)=O)[C@@H](C)O)[C@@H](C)O)[C@@H](C)O)[C@@H](C)O  soluble Aβ1-42 level (ELISA; TgCRND8 mice, brain; icv, dose not given, 5 months; baseline: vehicle): no effect
COC(=O)N1c2ccc3c(nc(Cc4ccccc4)n3[C@@H]3CCC[C@@H](C(=O)O)C3)c2CC[C@@H]1C  responding ER+ AR+ xenografts (mouse, breast cancer PDX; oral, 50 mg/kg, 4 days/week, 45 days): 67%
CC(C)n1cnc(C[C@H](NC(=O)c2nccnc2N)C(=O)N2CCC[C@H]2C(N)=O)c1  sleeping time reduction (Swiss albino mice; iv, 10 µmol/kg, with: pentobarbital 50 mg/kg ip; baseline: control): 27.9%
O=C(/C=C/c1coc2ccccc2c1=O)N1CCN(C(=S)SC2CC2)CC1  curative effect (tomato spotted wilt virus; viral infection, half-leaf method; Nicotiana glutinosa; 500 µg/mL): 47.4 ± 3.6%
Cc1cccc(NC(=O)CCN2CCN(C/C=C/c3ccccc3)CC2)c1  baseline locomotor activity (C57BL/6J mouse; intraperitoneal, 6.25 mg/kg, 0 to 30 min): no effect
CC(=O)N[C@@H](C)C(=O)N[C@@H](CO)C(=O)NC(C)(C)C(=O)N[C@@H](CC(C)C)C(=O)N[C@@H](CCCNC(=N)N)C(=O)N[C@@H](CCCCN)C(=O)N[C@@H](CC(C)C)C(=O)NC(C)(C)C(=O)N[C@@H](CCCCN)C(=O)N[C@@H](CCCNC(=N)N)C(=O)N[C@@H](CC(C)C)C(=O)N[C@@H](CC(C)C)C(N)=O  cortical lesion volume reduction (cresyl violet staining; male Long-Evans rat, fluid percussion injury; 1.0 mg/kg, 5 doses, post-injury day 22; baseline: contralateral cortex): 6.42%
CCN(CC)CCCSC(=S)N1CCN(C(=O)/C=C/c2coc3cc(F)ccc3c2=O)CC1  curative effect (tomato spotted wilt virus; viral infection, half-leaf method; Nicotiana glutinosa; 500 µg/mL): 56.2 ± 6.1%
CC(C)c1cnc(-c2cc(Cl)ccc2F)cc1Nc1ccncc1C(=O)NC(CO)CO  inhibition (refers to: pSMAD2; 4T1, mouse, 4T1 tumour model, 4T1 tumour; dose not given): 60 to 70%
CN1Cc2c(Cl)cc(Cl)cc2C(c2cccc(S(=O)(=O)NCCOCCOCCOCCNC(=O)C(O)C(O)C(=O)NCCOCCOCCOCCNS(=O)(=O)c3cccc(C4CN(C)Cc5c(Cl)cc(Cl)cc54)c3)c2)C1 (centres unmarked)  stool water increase (Sprague Dawley rat, stool; 10 mg/kg): 56%
CN(C)C(=O)c1ccnc(N2Cc3cn(Cc4ccc(F)cc4F)nc3C2)n1  fEPSP peak amplitude (synaptic transmission; mouse, hippocampus Schaffer collaterals; oral, 5 mg/kg, 1 h before recording): no effect

A few entries again:
COc1ccc(C2CC(c3ccc(C)cc3)=Nc3ccccc3S2)cc1OC (centres unmarked)  AST (SGOT) (Wistar rat, STZ-induced diabetes, serum; 20 mg/kg, 28 days): 20.4 ± 2.29 IU/L
COC(=O)N1c2ccc3c(nc(Cc4ccccc4)n3[C@@H]3CCC[C@@H](C(=O)O)C3)c2CC[C@@H]1C  responding ER+ AR+ xenografts (mouse, breast cancer PDX; oral, 50 mg/kg, 4 days/week, 45 days): 67%
CC(=O)N[C@@H](C)C(=O)N[C@@H](CO)C(=O)NC(C)(C)C(=O)N[C@@H](CC(C)C)C(=O)N[C@@H](CCCNC(=N)N)C(=O)N[C@@H](CCCCN)C(=O)N[C@@H](CC(C)C)C(=O)NC(C)(C)C(=O)N[C@@H](CCCCN)C(=O)N[C@@H](CCCNC(=N)N)C(=O)N[C@@H](CC(C)C)C(=O)N[C@@H](CC(C)C)C(N)=O  cortical lesion volume reduction (cresyl violet staining; male Long-Evans rat, fluid percussion injury; 1.0 mg/kg, 5 doses, post-injury day 22; baseline: contralateral cortex): 6.42%
